# Measured values collected from several papers.
# Every numbered part comes from another study and shows a few of its results, in no order.
# Sequence of UniProt P42684 (whole entry, looked up): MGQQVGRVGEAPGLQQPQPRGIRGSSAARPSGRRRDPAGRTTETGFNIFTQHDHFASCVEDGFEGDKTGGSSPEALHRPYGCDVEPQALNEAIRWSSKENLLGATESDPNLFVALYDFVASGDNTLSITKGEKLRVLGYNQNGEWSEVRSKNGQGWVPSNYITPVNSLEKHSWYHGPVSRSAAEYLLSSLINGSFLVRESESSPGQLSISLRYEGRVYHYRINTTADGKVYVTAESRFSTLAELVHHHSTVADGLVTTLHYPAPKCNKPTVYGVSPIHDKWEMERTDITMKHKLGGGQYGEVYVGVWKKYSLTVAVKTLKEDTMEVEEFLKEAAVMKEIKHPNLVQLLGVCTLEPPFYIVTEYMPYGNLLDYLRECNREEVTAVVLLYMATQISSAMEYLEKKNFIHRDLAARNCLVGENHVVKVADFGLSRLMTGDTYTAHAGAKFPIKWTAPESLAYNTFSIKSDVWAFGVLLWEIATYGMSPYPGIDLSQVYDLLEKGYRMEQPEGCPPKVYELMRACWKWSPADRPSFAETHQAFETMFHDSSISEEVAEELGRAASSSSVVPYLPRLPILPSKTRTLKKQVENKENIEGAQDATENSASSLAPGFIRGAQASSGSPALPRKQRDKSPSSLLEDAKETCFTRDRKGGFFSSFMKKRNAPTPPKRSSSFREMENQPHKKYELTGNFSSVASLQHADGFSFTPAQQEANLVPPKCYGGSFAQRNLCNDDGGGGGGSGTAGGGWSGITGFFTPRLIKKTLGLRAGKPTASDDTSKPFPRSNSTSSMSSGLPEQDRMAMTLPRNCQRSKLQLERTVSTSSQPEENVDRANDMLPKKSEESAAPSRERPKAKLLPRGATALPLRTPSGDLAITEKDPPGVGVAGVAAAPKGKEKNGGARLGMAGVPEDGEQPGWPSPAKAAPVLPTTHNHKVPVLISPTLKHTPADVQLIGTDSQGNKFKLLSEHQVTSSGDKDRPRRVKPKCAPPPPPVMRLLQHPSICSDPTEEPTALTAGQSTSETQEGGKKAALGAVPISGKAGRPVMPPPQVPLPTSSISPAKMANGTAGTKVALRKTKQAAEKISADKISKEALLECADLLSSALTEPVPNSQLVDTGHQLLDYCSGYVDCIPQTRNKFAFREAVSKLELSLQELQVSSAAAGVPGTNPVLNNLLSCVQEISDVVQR
# Sequence of UniProt O94921 (whole entry, looked up): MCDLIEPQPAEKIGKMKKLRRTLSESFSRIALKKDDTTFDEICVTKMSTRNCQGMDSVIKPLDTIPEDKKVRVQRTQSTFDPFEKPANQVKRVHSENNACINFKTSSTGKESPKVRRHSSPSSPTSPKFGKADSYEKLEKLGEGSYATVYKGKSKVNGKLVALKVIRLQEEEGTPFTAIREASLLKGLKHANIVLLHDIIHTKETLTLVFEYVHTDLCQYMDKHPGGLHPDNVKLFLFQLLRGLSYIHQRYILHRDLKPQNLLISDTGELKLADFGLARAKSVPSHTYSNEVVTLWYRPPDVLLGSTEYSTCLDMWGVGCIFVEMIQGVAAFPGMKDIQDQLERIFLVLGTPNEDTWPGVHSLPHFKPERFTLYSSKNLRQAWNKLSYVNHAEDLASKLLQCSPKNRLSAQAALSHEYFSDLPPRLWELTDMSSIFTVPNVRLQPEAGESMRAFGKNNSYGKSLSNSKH
# Sequence of UniProt P0C1S8 (whole entry, looked up): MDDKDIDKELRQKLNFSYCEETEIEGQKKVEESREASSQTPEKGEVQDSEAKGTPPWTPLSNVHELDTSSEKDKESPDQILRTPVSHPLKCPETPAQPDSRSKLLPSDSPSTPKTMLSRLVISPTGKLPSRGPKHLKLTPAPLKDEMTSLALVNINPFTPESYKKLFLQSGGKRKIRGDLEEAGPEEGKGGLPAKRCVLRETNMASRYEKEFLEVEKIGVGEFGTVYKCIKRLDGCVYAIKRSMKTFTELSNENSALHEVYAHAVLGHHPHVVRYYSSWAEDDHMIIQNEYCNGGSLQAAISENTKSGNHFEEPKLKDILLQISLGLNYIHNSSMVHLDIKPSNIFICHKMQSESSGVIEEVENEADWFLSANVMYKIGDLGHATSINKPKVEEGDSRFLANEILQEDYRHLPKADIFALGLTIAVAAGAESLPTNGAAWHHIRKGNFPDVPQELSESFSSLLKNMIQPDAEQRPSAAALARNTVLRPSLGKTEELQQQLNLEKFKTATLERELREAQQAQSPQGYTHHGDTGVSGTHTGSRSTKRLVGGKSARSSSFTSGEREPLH
# Sequence of UniProt P16591 (whole entry, looked up): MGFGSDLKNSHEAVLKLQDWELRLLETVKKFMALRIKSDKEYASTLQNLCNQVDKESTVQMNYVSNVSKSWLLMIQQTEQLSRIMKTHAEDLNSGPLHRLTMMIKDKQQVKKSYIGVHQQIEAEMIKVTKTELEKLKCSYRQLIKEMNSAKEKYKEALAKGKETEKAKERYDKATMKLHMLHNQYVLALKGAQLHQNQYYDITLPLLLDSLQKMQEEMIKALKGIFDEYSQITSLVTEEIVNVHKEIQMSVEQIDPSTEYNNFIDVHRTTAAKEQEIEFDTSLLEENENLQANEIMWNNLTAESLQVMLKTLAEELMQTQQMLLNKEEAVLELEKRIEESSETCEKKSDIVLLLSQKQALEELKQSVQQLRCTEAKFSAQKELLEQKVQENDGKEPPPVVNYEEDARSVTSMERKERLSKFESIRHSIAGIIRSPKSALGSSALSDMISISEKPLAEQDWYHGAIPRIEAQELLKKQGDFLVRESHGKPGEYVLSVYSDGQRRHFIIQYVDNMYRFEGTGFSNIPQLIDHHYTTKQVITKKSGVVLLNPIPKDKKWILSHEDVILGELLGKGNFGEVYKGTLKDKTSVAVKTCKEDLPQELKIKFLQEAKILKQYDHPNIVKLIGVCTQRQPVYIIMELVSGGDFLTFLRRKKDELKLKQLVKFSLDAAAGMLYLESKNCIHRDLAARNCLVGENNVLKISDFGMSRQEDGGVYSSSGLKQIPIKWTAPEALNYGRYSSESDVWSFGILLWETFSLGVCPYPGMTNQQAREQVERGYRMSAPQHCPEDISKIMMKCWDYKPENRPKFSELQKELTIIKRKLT
# Sequence of UniProt O43293 (whole entry, looked up): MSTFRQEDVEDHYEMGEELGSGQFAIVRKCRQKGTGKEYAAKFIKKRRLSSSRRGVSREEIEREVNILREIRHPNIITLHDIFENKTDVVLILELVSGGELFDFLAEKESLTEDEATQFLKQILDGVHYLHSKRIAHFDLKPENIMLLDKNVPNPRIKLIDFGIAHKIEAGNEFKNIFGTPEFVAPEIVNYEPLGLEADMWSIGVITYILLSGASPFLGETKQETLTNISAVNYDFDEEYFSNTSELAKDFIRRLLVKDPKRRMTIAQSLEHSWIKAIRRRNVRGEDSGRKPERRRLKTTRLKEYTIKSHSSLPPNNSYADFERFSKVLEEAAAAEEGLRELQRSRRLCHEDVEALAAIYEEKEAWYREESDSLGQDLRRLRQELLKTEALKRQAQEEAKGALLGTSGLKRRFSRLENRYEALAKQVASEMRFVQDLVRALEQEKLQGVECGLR

# Block 1
# Target: RING finger protein unkempt homolog, zinc fingers 1-6, GST-SBP tag (UNK, Homo sapiens, UniProt Q9C0B0, residues 30-357)
# Sequence of UniProt Q9C0B0 (30-357, looked up): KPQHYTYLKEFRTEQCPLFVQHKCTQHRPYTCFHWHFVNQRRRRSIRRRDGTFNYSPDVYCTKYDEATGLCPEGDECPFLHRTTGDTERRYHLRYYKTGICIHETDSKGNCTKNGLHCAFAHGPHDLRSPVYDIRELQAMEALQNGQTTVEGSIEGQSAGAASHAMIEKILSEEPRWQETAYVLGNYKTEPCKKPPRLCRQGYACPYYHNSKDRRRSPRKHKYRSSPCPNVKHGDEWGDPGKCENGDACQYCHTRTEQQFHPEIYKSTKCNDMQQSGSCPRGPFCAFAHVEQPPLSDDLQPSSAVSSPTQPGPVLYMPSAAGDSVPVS
# Technique: RNA Bind-n-Seq
# Form: RNA
# Sample: in vitro
# Tested at: not given
# Notes: RNA with constant flanks, ends assumed
# Relative to: input RNA pool
# Direction: higher = stronger binding
# All sequences stand within: GGGAGUUCUACAGUCCGACGAUC … CAACAGAGGAUUGAGCAUCA
Oligonucleotide,bound/input enrichment [ratio]
CAGAAAAUCGAUGAGCUCUUCUCUGGGAAGCUGUACCUCAUUGGAAUUGCAGCCAUUGUGGCCGCUGUCAUUAUGAUCUUUGAGAUGAUUCUGAGCAUGGUGCUGUGCUGUGGCAUCCGG,0.143
GGGCAGUUUGCGUUCCAUGUUGGUCUUCCUGCAAAAUCUGGAGUUGCUGGGGGUAUUCUUUCCGUUGUCCCCAACGUCAUGGGCAUGAUGUGUUGGUCUCCUCCUCUUGACAAGAUGGGC,0.304
GUAGAAUCUUGUUUGUAGGCUGAAUUUUAAUCUGUAUUUAUUGUCUUUUGUAUCUCAGAAAUCCGAAACUUGCUACAGACUUACCCGUAAUAUUUGUCAAGAUCAUAGCUGACUUUAAAA,1.41
GAGCCAGAGGAAGAAGAAGAGGAGAAGGAAGGGAAUGCCACUGUGAGUUUCUCACAGGCCCCCGCCGAGUUCACCAGCAAUGGAAACCUUUUUACCAGCAUGUCCUACAGCUCUGAUUCU,0.116
UCUAGGCAUUCAAGAUCUCGUAGCAGGCACAGAUUGUCUAGAUCCAGAAGUCGUCAUUCCCGUAUUUCUCCUAGCACACUAACUCUGAAGAGUAGCCUGGCAGCUGAAUUGAACAAGAAU,0.198
GGUGGUACCCUAGACCUGACCUUGAUUCGUGCUCGCCUCCAAGAGAAGCUGUCACCUCCUUACCGCUCCCCCCAGGAGUUUGCUCAAGAUGUGGGCCGCAUGUUCAAACAGUUCAACAAG,0.4
GGUGUCUUCUCAAACGGAGUAAGCGCCUGGAUCCAAAUGGUAGACUACUUGACCCCGUUCUCCCGCGUGAGUUUUCAUAGUGCCAUCUCCUCAUGAUUGUAGAAGCAGCUGAAUGAGUUU,0.145
UCCCAUAUGAAAAAAGGAGAGAACACUGGCAUCUGUUGAAAUUUGGAAGUUCUGAAAUUACCGUAUUUUUAAAAAUUGCACUGAAGUGUAUACACAUAAAGCAGGUCUUUUAUCCAGUGA,0.449

# Block 2
# Target: Serine/threonine-protein kinase SIK2 (SIK2, Homo sapiens, UniProt Q9H0K1)
# Sequence of UniProt Q9H0K1 (whole entry, looked up): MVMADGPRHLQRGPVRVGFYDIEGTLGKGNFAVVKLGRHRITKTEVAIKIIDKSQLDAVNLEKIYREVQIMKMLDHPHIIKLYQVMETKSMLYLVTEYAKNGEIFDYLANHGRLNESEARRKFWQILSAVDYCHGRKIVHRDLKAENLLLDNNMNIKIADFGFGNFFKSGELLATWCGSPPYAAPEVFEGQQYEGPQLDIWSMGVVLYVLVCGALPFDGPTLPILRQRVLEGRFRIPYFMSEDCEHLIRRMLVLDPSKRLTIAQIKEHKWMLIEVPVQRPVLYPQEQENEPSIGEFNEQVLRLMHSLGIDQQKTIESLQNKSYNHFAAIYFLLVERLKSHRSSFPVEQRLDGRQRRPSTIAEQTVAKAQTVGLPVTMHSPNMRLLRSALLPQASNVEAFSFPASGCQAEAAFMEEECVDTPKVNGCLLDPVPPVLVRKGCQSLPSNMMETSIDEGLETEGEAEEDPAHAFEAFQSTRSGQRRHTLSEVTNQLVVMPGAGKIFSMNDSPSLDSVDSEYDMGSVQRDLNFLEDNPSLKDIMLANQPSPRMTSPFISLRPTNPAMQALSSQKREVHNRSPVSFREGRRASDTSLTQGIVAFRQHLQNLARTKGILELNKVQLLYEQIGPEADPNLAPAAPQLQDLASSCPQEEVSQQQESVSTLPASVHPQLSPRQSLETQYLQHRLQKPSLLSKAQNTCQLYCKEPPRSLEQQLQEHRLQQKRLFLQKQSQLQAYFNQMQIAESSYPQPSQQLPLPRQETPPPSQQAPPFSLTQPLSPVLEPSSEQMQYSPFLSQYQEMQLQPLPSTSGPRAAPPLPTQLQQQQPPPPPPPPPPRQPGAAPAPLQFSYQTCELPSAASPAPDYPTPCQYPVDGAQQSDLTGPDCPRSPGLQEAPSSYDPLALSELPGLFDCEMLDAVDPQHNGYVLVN
# Effect on: enzyme activity
# Action: inhibitor
# Tested at: 0.5 µM
# Relative to: control
Compound,remaining activity [%]
CNC(=O)c1cc(Oc2ccc(NC(=O)Nc3ccc(Cl)c(C(F)(F)F)c3)cc2)ccn1,102
O=c1c2ccccc2[nH]c(=S)n1CCN1CCC(=C(c2ccc(F)cc2)c2ccc(F)cc2)CC1,89.7
Cc1ccc(Nc2nccc(N(C)c3ccc4c(C)n(C)nc4c3)n2)cc1S(N)(=O)=O,84.1
O=C(O)c1ccc2c3c1cccc3c(=O)n1c3ccccc3nc21,92.8
O=C(CCCc1ccc(-c2ccccc2F)cc1)Nc1ccc(O)cc1,102
NCCNc1ncc(C(N)=O)c(Nc2cccc(C(F)(F)F)c2)n1,80.1
COc1cc2ncnc(Nc3ccc(F)c(Cl)c3)c2cc1OCCCN1CCOCC1,49.3
COc1ccc(CNC(=O)Nc2ncc([N+](=O)[O-])s2)cc1,89.4
Nc1[nH]nc2nc3ccccc3nc12,102
Nc1ccc2ncnc(NCCc3ccc(Oc4ccccc4)cc3)c2c1,97.4
CN(C)c1ccc(C=C2C(=O)Nc3ccccc32)cc1,101
O=S(=O)(c1cccc2cnccc12)N1CCCNCC1,97.7
COc1cc2ncnc(Nc3ccc(Oc4ccccc4)cc3)c2cc1OC,97.7
O=C1NC(=O)C(c2cn(CCCO)c3ncccc23)=C1c1cnccn1,101

# Block 3
# Structure (SMILES): CN(C)CC#Cc1ccc(OCCCc2sc(N3CCc4cccc(C(=O)Nc5nc6ccccc6s5)c4C3)nc2C(=O)O)c(F)c1
# Effect on: cell-free assay
# Technique: competition with immobilised ligand
# Tested at: 1 µM
target,remaining binding
"Wee1-like protein kinase 2 (WEE2, Homo sapiens, UniProt P0C1S8)",100%
"Ephrin type-A receptor 1 (EPHA1, Homo sapiens, UniProt P21709)",100%
"Cyclin-dependent kinase 2 (CDK2, Homo sapiens, UniProt P24941)",100%
"Tyrosine-protein kinase ABL2 (ABL2, Homo sapiens, UniProt P42684)",100%
"Cyclin-dependent kinase 14 (CDK14, Homo sapiens, UniProt O94921)",100%
"Tyrosine-protein kinase Fer (FER, Homo sapiens, UniProt P16591)",100%
"Death-associated protein kinase 3 (DAPK3, Homo sapiens, UniProt O43293)",90%

# Mixed results
Substance,target,test,test system,conditions,how to read,endpoint,value
"PhoQ, residues 284 288 289 292 302 303 SSTLLI","PhoP, residues 12 14 15 18 19 LQHIR (Escherichia coli, UniProt P23836)","Sort-seq, item: YFP reporter",E. coli,"PhoQ-PhoP variant library, with: 10 µM Mg2+","relative to: high Mg2+ state, higher = stronger signaling",fold induction,2.05
